Measurements gathered from unrelated publications.
Lines come from different studies, so protocols differ. Numbers after ± are the reported error.

SMILES	target or system	assay	system	setting	scale	quantity	result
O=C(/C=C/C=C/C=C/C1CCCCC1)NC1=C[C@@](O)(/C=C/C=C/C=C/C(=O)NC2=C(O)CCC2=O)[C@@H]2O[C@@H]2C1=O	NCI-H2172	cell growth, CellTiter-Glo	–	78 h	–	GI50	25.9 µM
NC(=O)c1cnc2[nH]ccc2c1N[C@@H]1[C@@H]2CC3C[C@H]1C[C@@](O)(C3)C2	–	flow cytometry, item: CD4+ effector T cells	Japanese healthy subjects, peripheral blood	oral, 10 mg twice daily, day 7	–	change from baseline	0.12%
Cn1cc(-c2ccc(-c3cncc(Cl)c3N3CCC4(CCNC4=O)CC3)cc2)cn1	COLO 205	gene expression, microarray, item: CDKN1A mRNA	–	concentration not given, 6 h	reference: untreated cells	log2 fold change	2.98
COc1ccc(CCc2nc3cc(-c4c(C)noc4C)ccc3n2C[C@H](C)N2CCOCC2)cc1Cl	OCI-Ly1	–	–	0.1 µM, 120 h	–	viability	130%
O=C(O)c1cc(O)c2c(c1)C(=O)c1cccc(O)c1C2=O	HepaRG co-cultured with HK-2	MTT	–	266.67 µM, 48 h	reference: untreated control	cell viability	4.75 ± 4.14%
Oc1ccccc1-c1n[nH]cc1-c1ccnc2ccccc12	KIN28 (Candida albicans)	kinase binding, MIB/MS competition	Candida albicans lysate	10 µM	reference: DMSO	log2 fold change	-0.43
C[C@H]1C[C@H]2CSC(N)=N[C@@]2(c2nc(NC(=O)c3ccc(OC(F)F)cn3)cs2)CO1	–	item: total Aβ	healthy adults, plasma	400 mg single dose, 8 h post-dose	reference: placebo	percent change from baseline	-60.9%
c1ccc2c(Cc3c[nH]c4ccccc34)c[nH]c2c1	OCI-Ly1	–	–	0.5 µM, 120 h	–	viability	158%
CC(C)C[C@H](NC(=O)C[C@H](O)[C@H](CC(C)C)NC(=O)[C@H](Cc1c[nH]cn1)NC(=O)CNC(=O)[C@@H](NC(=O)[C@H](C)NC(=O)[C@H](Cc1c[nH]c2ccccc12)NC(=O)[C@H](CCC(N)=O)NC(=O)[C@@H](Cc1ccccc1)NC(=O)COCCOCCNC(=O)CCC(C(=O)O)N1CCN(CC(=O)O)CCN(CC(=O)O)CCN(CC(=O)O)CC1)C(C)C)C(N)=O (stereo partly drawn) [lutetium-177 labelled]	–	–	female BALB/c nu/nu mice, blood	intravenous, 100 pmol, 2 h, with: PA 300 µg	–	tissue uptake	0.08 ± 0.04 %ID/g
CCN(CC)CCCC(C)Nc1ccnc2cc(Cl)ccc12 (stereo not drawn)	COS-7	–	–	100 µM, 24 h, 0.1% DMSO, unit not given	reference: control	necrosis	0.64 ± 0.14
Cc1cc(O)c2c(c1)C(=O)c1cc(O)cc(O)c1C2=O	HepaRG co-cultured with HK-2	MTT	–	66.67 µM, 48 h	reference: untreated control	cell viability	30.6 ± 6.79%
O=C(O)C[C@H](O)C[C@H](O)/C=C/c1c(C2CC2)nc2ccccc2c1-c1ccc(F)cc1	COS-7	–	–	30 µM, 24 h, 0.1% DMSO, unit not given	reference: vehicle control	necrotic cells	0.88 ± 0.16
O=C(O)CNC(=O)Cc1ccccc1	–	–	ventricular cardiomyocytes, C57BL/6 mouse	dose not given, 0.244 s	–	sarcomere length	1.64 µm
COc1ccccc1S(=O)(=O)Nc1ccc2c(c1)CN(C)C(=O)N2	OCI-Ly1	–	–	1 µM, 120 h	–	viability	58.1%
c1coc(-c2n[nH]cc2-c2ccnc3ccccc23)c1	YPK1 (Candida albicans)	kinase binding, MIB/MS competition	Candida albicans lysate	10 µM	reference: DMSO	log2 fold change	-0.06
